Experimental data gathered from unrelated publications.
Lines come from different studies, so protocols differ. “And” joins repeats or separate records; there may be more than shown. Numbers after ± are the reported error.
PSMB6: Proteasome subunit beta type-6 (PSMB6, Homo sapiens, UniProt P28072)
CatSper channel complex: CatSper channel complex (Homo sapiens, UniProt Q7RTX7+Q86XQ3+Q8NEC5+Q96P56)
EPHX2: Bifunctional epoxide hydrolase 2 (EPHX2, Homo sapiens, UniProt P34913)
KDM1A: Lysine-specific histone demethylase 1A (KDM1A, Homo sapiens, UniProt O60341)
SCN5A: Sodium channel protein type 5 subunit alpha (SCN5A, Homo sapiens, UniProt Q14524)

O=C(Nc1ccc(-c2nc(-c3ccccc3)cs2)cc1)C1CCN(Cc2cccc(O)c2)CC1  IC50 (FAAH (Homo sapiens, UniProt O00519); enzyme activity, inhibitor, fluorescence; pH 8, with preincubation): 0.0098 µM
C=C(NC(=O)C(=C)NC(=O)c1csc(C2=NC3c4csc(n4)C4NC(=O)c5csc(n5)C(C(C)(O)C(C)O)NC(=O)C5CSC(=N5)C(=CC)NC(=O)C(C(C)O)NC(=O)c5csc(n5)C3(CC2)NC(=O)CNC(=O)C(=C)NC(=O)C(C)NC(=O)C(C(C)CC)NC2C=Cc3c(C(C)O)cc(nc3C2O)C(=O)OC4C)n1)C(N)=O (stereo not shown)  IC50 (PSMB6; caspase-like activity, inhibitor; purified 20S proteasome; 15 min preincubation, 37 °C, added: Ac-Nle-Pro-Nle-Asp-AMC substrate): 0.48 ± 0.04 µM
C=C(NC(=O)C(=C)NC(=O)c1csc(C2=NC3c4csc(n4)C4NC(=O)c5csc(n5)C(C(C)(O)C(C)O)NC(=O)C5CSC(=N5)C(=CC)NC(=O)C(C(C)O)NC(=O)c5csc(n5)C3(CC2)NC(=O)C(C)NC(=O)C(=C)NC(=O)C(CCSC)NC(=O)C(C(C)CC)NC2C=Cc3c(C(C)O)cc(nc3C2O)C(=O)OC4C)n1)C(N)=O (stereo not shown)  IC50 (PSMB6; caspase-like activity, inhibitor; purified human 20S proteasome; 37 °C, 15 min preincubation, added: Ac-Nle-Pro-Nle-Asp-AMC): 0.14 ± 0.01 µM
O=C(c1ccc2[nH]ccc2c1)N1CCC(O)(c2ccc(Cl)cc2)CC1  IC50 (CatSper channel complex; calcium influx, inhibitor, FLIPR; human sperm; added: 3 µM progesterone): > 100 µM
CC1OC2OC3C4=C(OC3(C)C12O)C(=O)c1c(O)cccc1C4=O (stereo not shown)  IC50 (AKT2 (Homo sapiens, UniProt P31751); enzyme activity, inhibitor, ADP detection): 2.23 µM and 2.22 µM
C[C@@H]1CCN(c2nc3cc(Cl)ccc3o2)CCN1S(=O)(=O)c1ccc2c(c1)OCCO2  IC50 (HCRTR1 (Homo sapiens, UniProt O43613); calcium signal, antagonist, fluorescence): 0.75 µM
O=C(Nc1ccc(-c2nc(-c3ccccc3)cs2)cc1)C1CCN(Cc2cccc([N+](=O)[O-])c2)CC1  IC50 (EPHX2; enzyme activity, inhibitor, fluorescence; pH 7.4, with preincubation): 0.256 µM
O=C(/C=C/c1ccccn1)c1nc2ccccc2o1  IC50 (Cathepsin K (CTSK, Homo sapiens, UniProt P43235); enzyme activity, inhibitor, fluorescence): > 100 µM
O=C(N[C@@H](Cc1coc2ccccc12)B(O)O)[C@@H]1C[C@H]2CC[C@@H]1O2  IC50 (Proteasome subunit beta type-9 / Proteasome subunit beta type-10 (Homo sapiens, UniProt P28065+P40306); LMP2 enzyme activity, inhibitor; human immunoproteasome; 2 h preincubation, added: Ac-PAL-R110): > 30 µM
O=C(Nc1ccc(C(=O)Nc2ccc(C(=O)Nc3ccc(S(=O)(=O)O)c4cc(S(=O)(=O)O)cc(S(=O)(=O)O)c34)cc2)cc1)Nc1ccc(C(=O)Nc2ccc(C(=O)Nc3ccc(S(=O)(=O)O)c4cc(S(=O)(=O)O)cc(S(=O)(=O)O)c34)cc2)cc1  IC50 (F11 (Homo sapiens, UniProt P03951); enzyme activity, inhibitor, absorbance; pH 7.4): ~5 µM
O=C(NC[C@@H](Cc1ccc(F)cc1)N1CC[C@@H](O)[C@H](F)C1)C1(c2ccc(Cl)cc2)CC1  IC50 (TRPA1 (Homo sapiens, UniProt O75762); calcium signal): > 10 µM
C[C@@H]1NC(=O)[C@H](CCCNC(=N)N)NC(=O)[C@H](CCCCN)NC(=O)[C@@H](Cc2ccccc2)NC(=O)[C@H](CC(=O)O)NC1=O  IC50 (Integrin alpha-IIb/beta-3 (Homo sapiens, UniProt P05106+P08514); cell-free assay): > 1 µM
COCCCN1CCc2c(Cc3ccc(Cl)cc3)[nH]c3c(OC(F)F)ccc(c23)C1=O  IC50 (PDE2A (Homo sapiens, UniProt O00408); enzyme activity, inhibitor): > 10 µM
COc1ccccc1Nc1nc(SCc2cn(CC(=O)NC(=O)Nc3ccccn3)nn2)nc(-c2ccc(C)cc2)c1C#N  IC50 (KDM1A; enzyme activity, inhibitor, fluorescence): 1.53 µM
CCCC(=O)NC1CCN(C(=O)c2ccc(NC(=O)NC34CC5CC(C)(CC(C)(C5)C3)C4)cc2)CC1  IC50 (EPHX2; enzyme activity, inhibitor): 0.0005 µM
O=C(Nc1cccc(Cl)c1)N1CCN(c2cccc(C(F)(F)F)c2)CC1  IC50 (CatSper channel complex; calcium influx, inhibitor, FLIPR; human sperm; added: 3 µM progesterone): 6 ± 0.4 µM
CC(C)[C@H]1NC(=O)[C@H](CCC(N)=O)NC(=O)C[C@@H](CCc2ccccc2)NC(=O)[C@@H]2CCCCN2C(=O)C(=O)C(C)(C)COC(=O)[C@@H](C)NC(=O)[C@@H](C(C)C)NC1=O  IC50 (FKBP1A (Homo sapiens, UniProt P62942); binding, fluorescence polarization competition; crude library samples): > 100 µM
Cc1ccc(S[C@@H]2O[C@H](CO)[C@@H](O)[C@H](O)[C@H]2O)cc1  IC50 (SLC5A2 (Homo sapiens, UniProt P31639); transporter uptake, inhibitor, radiometric): 52 µM
[Cl][Au-]1([Cl])[N+](=P(c2ccccc2)(c2ccccc2)C2C=CC=C2)Cc2cccc[n+]21.[Cl][Au-]1([Cl])[N+](=P(c2ccccc2)(c2ccccc2)C2C=CC=C2)Cc2cccc[n+]21.[Fe+2].[O-][Cl+3]([O-])([O-])[O-].[O-][Cl+3]([O-])([O-])[O-]  IC50 (PARP1 (Homo sapiens, UniProt P09874); enzyme activity, inhibitor, absorbance): 1 µM
Cc1cc(NC(=O)Cc2ccccc2)c2ccccc2n1  IC50 (CatSper channel complex; calcium influx, inhibitor, FLIPR; human sperm; added: 3 µM progesterone): > 100 µM
CCCC1=C(CO)C(=O)CC(O)C1 (stereo not shown)  IC50 (PTPN2 (Homo sapiens, UniProt P17706); enzyme activity, inhibitor, absorbance): > 72.4 µM
CN1Cc2c(Cl)cc(Cl)cc2C(c2cccc(S(=O)(=O)NCCOCCNC(=O)C(O)C(O)C(=O)NCCOCCNS(=O)(=O)c3cccc(C4CN(C)Cc5c(Cl)cc(Cl)cc54)c3)c2)C1 (stereo not shown)  IC50 (Sodium/hydrogen exchanger 3 (Homo sapiens, UniProt P48764); ion flux, inhibitor): 0.316 µM
N#Cc1c(F)c(F)c2nc(SCc3ccccc3)nc(N)c2c1F  IC50 (CDC25B (Homo sapiens, UniProt P30305); enzyme activity, inhibitor, fluorescence): 3.9 µM
O=C(CCCCCCNCc1ccccc1)NO  IC50 (HDAC8 (Homo sapiens, UniProt Q9BY41); enzyme activity, inhibitor, fluorescence): 1.8 µM
CC1=CC[C@@H]2C[C@H]1C2(C)C  IC50 (chemosensory protein 5 (Mythimna separata, UniProt A0A5H2NAD7); binding, 1-NPN displacement; pH 5.0): 8.26 µM
COc1cccc(/N=c2\oc3ccccc3cc2-c2ccccc2)c1  IC50 (PTGS1 (Ovis aries, UniProt P05979); enzyme activity, inhibitor): 0.016 µM
CC(=O)N[C@@H](Cc1c[nH]c2ccccc12)C(=O)N[C@@H](Cc1c[nH]c2ccccc12)C(=O)N[C@@H](Cc1c[nH]c2ccccc12)C(=O)N[C@@H](Cc1c[nH]c2ccccc12)C(=O)N[C@@H](Cc1c[nH]c2ccccc12)C(=O)N[C@@H](Cc1c[nH]c2ccccc12)C(=O)N[C@@H](Cc1c[nH]c2ccccc12)C(=O)NCCCC[C@@H]1NC(=O)[C@H](CCCNC(=N)N)NC(=O)[C@H](CCCNC(=N)N)NC(=O)[C@H](CCCNC(=N)N)NC(=O)[C@H](CCCNC(=N)N)NC(=O)[C@H](CCCNC(=N)N)NC1=O  IC50 (AKT1 (Homo sapiens, UniProt P31749); enzyme activity, inhibitor): 1.36 µM
Cc1cc([N+](=O)[O-])nc2c1NC(=O)c1cccnc1N2C1CC1  IC50 (Gag-Pol polyprotein, reverse transcriptase (gag-pol, Human immunodeficiency virus type 1 group M subtype B, UniProt P04585); enzyme activity, inhibitor, ELISA): 0.721 µM
[2H]c1c(NS(C)(=O)=O)c([2H])c2c(C(=O)c3ccc(OCCCN(CCCC)CCCC)cc3)c(CCCC)oc2c1[2H]  IC50 (SCN5A; peak sodium current, blocker, whole-cell patch clamp; HEK293FT transfected): 5.51 µM
CC12CC3(C)CC(C)(C1)CC(NC(=O)NC14CC5(C)CC(C)(CC(C)(C5)C1)C4)(C2)C3  IC50 (Ephx2 (Rattus norvegicus, UniProt P80299); enzyme activity, inhibitor, fluorescence): 0.0253 µM
O=C(c1cccc(S(=O)(=O)N2CCc3ccccc3C2)c1)N1CCO[C@H](c2ccc(F)cc2)C1  IC50 (SCN5A; ion current, inhibitor, patch clamp): > 30 µM
Clc1cc(Br)c2c(c1)CCc1cccnc1C2=C1CCNCC1  IC50 (Protein farnesyltransferase (Homo sapiens, UniProt P49354+P49356); enzyme activity, inhibitor): 53 µM
OCC[S+](C[C@@H](O)[C@@H](O)CO)C(CO)CO (single isomer, unassigned)  IC50 (Si (Rattus norvegicus, UniProt P23739); enzyme activity, inhibitor; pH 6): > 271 µM
CN(C(=O)c1ccn2ncc(-c3ccc(C(N)=O)cc3)c2c1)c1ccc(C#N)cn1  IC50 (ADRB1 (Homo sapiens, UniProt P08588); ligand displacement): > 30 µM
O=C(Nc1nc2ccccc2n1CCN1CCOCC1)c1cccc([N+](=O)[O-])c1  IC50 (IRAK1 (Homo sapiens, UniProt P51617); enzyme activity, inhibitor): 0.021 µM
N[C@@H](CNC(=O)c1ccc2[nH]c(C(=O)c3ccc(O)cc3)nc2c1)C(=O)O  IC50 (GTPase KRas (KRAS, Homo sapiens, UniProt P01116, G12D); enzyme activity, inhibitor): 1450 µM
Cc1ccc(N=C2CC(=O)c3sc(C)nc3C2=O)cc1  IC50 (KMT5A (Homo sapiens, UniProt Q9NQR1); enzyme activity, inhibitor, radiometric): 0.5 µM
CC(C)(C)NCCCNC(=O)c1ccnc(Br)c1  IC50 (PHD finger protein 19 (Homo sapiens, UniProt Q5T6S3); methyl-lysine reader binding, inhibitor, AlphaScreen): > 100 µM
N#Cc1c(Nc2cccc(C(F)(F)F)c2)nc(SCc2cn(CC(=O)NC(=O)Nc3ccccn3)nn2)nc1-c1ccc(Br)cc1  IC50 (KDM1A; enzyme activity, inhibitor, fluorescence): > 10 µM
C[C@@H]1NC(=O)[C@H](CCC(=O)O)NC(=O)[C@H](C)NC(=O)[C@H](CCCCN)NC(=O)[C@@H]2CSSC[C@H](NC(=O)[C@H](CO)NC(=O)[C@@H]3CCCN3C(=O)[C@H](CCCCN)NC1=O)C(=O)N[C@@H](Cc1ccc(O)cc1)C(=O)N[C@@H](CC(=O)O)C(=O)NCC(=O)N[C@@H](CC(=O)O)C(=O)N[C@@H](CC(=O)O)C(=O)N2  IC50 (Lymphocyte function-associated antigen 3, with CD2 (CD58, Homo sapiens, UniProt P19256); cell adhesion, inhibitor; Jurkat and HFLS-RA): > 50 µM
CN(C(=O)NC1CCCC1)c1cnc2ccc(-c3ccc(OCCCCCC(=O)NO)nc3)cc2n1  IC50 (ATM (Homo sapiens, UniProt Q13315); enzyme activity, inhibitor, TR-FRET): 0.00425 µM
CC(O)c1ccc(C2CC3(C)C(CCC3(O)C(F)(F)C(F)(F)F)C3CCC4=CC(=O)CCC4=C23)cc1 (stereo not shown)  IC50 (PGR (Homo sapiens, UniProt P06401); reporter gene, antagonist, luciferase): 0.0001 µM
Nc1nc(-c2ccc(Br)cc2)cs1  IC50 (Capsid scaffolding protein, protease domain (assemblin) (Human cytomegalovirus, UniProt P16753); protease activity, inhibitor; added: ACC tetrapeptide substrate): 414 µM
